Measurements pooled from the literature.
Compare with care: the assays were run in different laboratories.
EGFR: Epidermal growth factor receptor (EGFR, Homo sapiens, UniProt P00533)

SMILES | target | test | test system | conditions | inhibition
O=C(c1ccc(F)cc1)N(Cc1ccccc1)C1CCCCC1 | EGFR |  |  | 10 µM | -8%
[2H]c1cc(C)c(NC(=O)c2cnc(Nc3cc(N4CCCCC4)nc(C)n3)s2)c(Cl)c1 | EGFR (Homo sapiens, UniProt P00533, del746-750/T790M) |  |  | 0.01 µM | < 30%
Cc1cc(O)c(-c2ccc([C@@H](C)CN(C)C)cc2)c2c1[nH]c(=O)c1sccc12 | EGFR | inhibitor, KiNativ probe labelling | cell lysate | 0.1 µM | 2.45%
COc1ccc(-c2nn(-c3ccc(S(C)(=O)=O)cc3)cc2C=N/N=c2\[nH]c(-c3ccc([N+](=O)[O-])cc3)cs2)cc1 | EGFR | kinase activity, inhibitor |  | 10 µM | 82.7%
C=CC(=O)Nc1cc(Nc2nccc(Nc3cc(Cl)c(F)cc3C(C)(C)O)n2)c(OC)cc1N1CC[C@@H](N(C)C)C1 | EGFR |  | mouse | dose not given | > 80%
COc1ccc(-c2nn(-c3ccc(S(C)(=O)=O)cc3)cc2/C=N/N=c2\[nH]c(-c3ccc(Br)cc3)cs2)cc1 | EGFR | kinase activity, inhibitor |  | 0.1 µM | 58.1%
C#Cc1cc(-c2cc(Nc3nc(N[C@@H](C)c4ccc(F)cn4)ncc3Cl)n[nH]2)ccc1C=O | EGFR (Homo sapiens, UniProt P00533, L861Q) | enzyme activity, inhibitor |  | 0.2 µM | 30.4%
CC(C)Cc1ccc(-c2nn(-c3ccc(S(C)(=O)=O)cc3)cc2/C=N/N=c2\[nH]c(-c3ccc([N+](=O)[O-])cc3)cs2)cc1 | EGFR | kinase activity, inhibitor |  | 10 µM | 80.3%
NC/C(=C\F)COc1cccc(Cn2c(=S)[nH]c(=O)c3[nH]cnc32)c1 | EGFR | radioligand binding, refers to: EGF binding |  | 10 µM | < 50%

Repeated from above:
SMILES | target | test | test system | conditions | inhibition
C#Cc1cc(-c2cc(Nc3nc(N[C@@H](C)c4ccc(F)cn4)ncc3Cl)n[nH]2)ccc1C=O | EGFR (Homo sapiens, UniProt P00533, L861Q) | enzyme activity, inhibitor |  | 0.2 µM | 30.4%
